# Results gathered from unrelated publications.
# Every numbered part comes from another study and shows a few of its results, in no order. Changes are numbered by the printed parent chain.

# Block 1 — technique: RNAcompete; form: RNA; matrix: in vitro; tested at: 20 nM; setting: 7-mer, probes averaged, single round; relative to: mean of 7-mers; direction: higher = stronger binding
# Target: PABPC1L2, full length, GST fusion (mouse, UniProt A0ABA7IW68)
# Target sequence (chain): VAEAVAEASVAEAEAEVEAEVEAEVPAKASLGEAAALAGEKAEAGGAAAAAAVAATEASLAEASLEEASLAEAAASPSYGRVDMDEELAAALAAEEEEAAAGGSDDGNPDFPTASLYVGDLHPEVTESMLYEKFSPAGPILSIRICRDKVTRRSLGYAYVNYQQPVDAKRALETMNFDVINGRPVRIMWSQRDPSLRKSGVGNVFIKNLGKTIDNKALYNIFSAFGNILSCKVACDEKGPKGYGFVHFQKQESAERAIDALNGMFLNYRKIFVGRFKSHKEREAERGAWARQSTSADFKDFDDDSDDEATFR
Sequence,7-mer Z-score
AAUGCAU,0.126
AGAUCAG,-0.211
CGUUCUA,-0.32
GAAUGGA,0.113
CGGAUGG,0.0895
AUAGAUU,-0.0844
UCAUAUC,-0.302
UUAAUCU,-0.17

# Block 2 — technique: protein-binding microarray; form: double-stranded DNA, one strand shown; matrix: in vitro; tested at: 2540 nM top; setting: 60-bp whole probe; together with: salmon DNA 0.4 mg/ml; relative to: random background probes; direction: higher = stronger binding; shared flanks, not repeated: GCCTAGCAC … GTCTTGATTCGCTTGACGCTGCTG
# Target: Interferon regulatory factor 3, full length, phosphomimetic (IRF3, Homo sapiens, UniProt Q14653, residues 1-427, S386D/S396D/S398D/S402D/T404D/S405D)
# Residues (chain): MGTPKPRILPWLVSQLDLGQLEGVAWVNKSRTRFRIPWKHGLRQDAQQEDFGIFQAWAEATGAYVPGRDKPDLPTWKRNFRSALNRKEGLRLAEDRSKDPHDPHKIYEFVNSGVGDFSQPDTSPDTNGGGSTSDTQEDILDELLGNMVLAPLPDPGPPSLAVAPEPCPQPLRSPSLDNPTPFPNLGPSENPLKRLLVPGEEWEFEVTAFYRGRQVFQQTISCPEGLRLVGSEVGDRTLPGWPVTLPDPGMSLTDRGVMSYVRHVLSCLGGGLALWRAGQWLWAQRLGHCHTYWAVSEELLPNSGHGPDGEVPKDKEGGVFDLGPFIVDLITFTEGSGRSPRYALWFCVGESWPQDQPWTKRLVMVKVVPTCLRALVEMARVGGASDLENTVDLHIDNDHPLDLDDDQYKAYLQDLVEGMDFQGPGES
Sequence,fitted relative affinity
TTAGGTTTAGGTATCGGTTAGTGCTAG,1.7 z-score
TTAGGTATCGTCACTGGGTTAGTGCTA,-0.24 z-score
TTAGATTACAGTTTCGATTAGTGCTAG,3.58 z-score
TTAGGTCTCCTACTTCTTTAGTGCTAG,1.75 z-score
TTAGGTATCGACTTTCGGGTAGTGCTA,1.08 z-score
TTAGATTACGGGACTGGATTAGTGCTA,-0.415 z-score
GACGATATCAGTCTCGGGACGTGCTAG,1.05 z-score
TTAGATTTCCGTTTCGATTAGTGCTAG,6.09 z-score

# Block 3 — effect on: peptide-MHC binding; form: peptide; tested at: concentration not given
# Target: HLA class I histocompatibility antigen, A alpha chain, allele A*80:01 (Homo sapiens, UniProt P04439)
Sequence,binding
NRDGDSYYY,inactive
ETMKPAAMV,inactive
KTRMEDYYL,inactive
AELIDSFTW,inactive

# Block 4 — technique: universal PBM; form: double-stranded DNA, one strand shown; matrix: in vitro; tested at: not given; direction: higher = stronger binding
# Target: Sal-like protein 4, full length isoform B (SALL4, Homo sapiens, UniProt Q9UJQ4-2, residues 1-616)
# Setting: 8-mer, flanks averaged, mean of replicates
Sequence,E-score
CTTTGCTC,-0.114
AAGAATCG,-0.00374
ACCAGTTG,-0.114
CAGCCTAG,-0.0837
CCGTAACG,-0.249
ATGTCAAC,0.199
GTCAATAA,0.351
ACAAATTA,0.294

# Block 5 — target: CCND2, cyclin fold, Cln2 fusion (human); technique: yeast growth competition, sequencing; matrix: yeast; setting: strong parent motif; relative to: not given; direction: higher = stronger binding; starting sequence: viral docking peptide; YKVKRRLVFGADD
Change,normalised enrichment score
YKGKRRLVFGADD [V3G],0.371
YKVKRRLVFGLDD [A11L],1.37
YKVKRALVFGADD [R6A],0.616
YKVKRRLFFGADD [V8F],1.04
YKVKRRLVYGADD [F9Y],0.531
YKVKRRLVFGFDD [A11F],1.24
YKVKRRLVFMADD [G10M],0.79
YKVKRRLVFGAVD [D12V],0.959
YKVFRRLVFGADD [K4F],-0.389
YKVKVRLVFGADD [R5V],0.756
YKVKRWLVFGADD [R6W],-0.273
YKVKRRKVFGADD [L7K],0.738
YKVKTRLVFGADD [R5T],0.263
YKVKRRLVFGYDD [A11Y],1.21
YKVKRRLVIGADD [F9I],0.364
YKVKRRLVFFADD [G10F],0.586
YKVKRRYVFGADD [L7Y],-0.168
YKEKRRLVFGADD [V3E],0.0795
YKTKRRLVFGADD [V3T],0.972
YKVKRRLVFGVDD [A11V],1.21
YKVKRRLDFGADD [V8D],2.97
YKVKRRLVFVADD [G10V],1.13
YKVKRRLVFWADD [G10W],0.338
YKDKRRLVFGADD [V3D],0.15
YKKKRRLVFGADD [V3K],0.583

# For quick reference, copied from above (block 5):
Change,normalised enrichment score
YKVFRRLVFGADD [K4F],-0.389
YKVKRRLVFMADD [G10M],0.79
YKVKRRLVFFADD [G10F],0.586
